Measured values gathered from unrelated publications.
Parts stem from different laboratories: compare values within a part only. Substitutions count along the parent as printed.

Set 1
Target: CCNF, cyclin fold, Cln2 fusion (human)
Method: yeast growth competition, sequencing
Sample: yeast
Notes: strong parent motif
Baseline: not given
Reading: higher = stronger binding
Parent: CENPC docking peptide (human); VKTKKRLNFDDKV; partner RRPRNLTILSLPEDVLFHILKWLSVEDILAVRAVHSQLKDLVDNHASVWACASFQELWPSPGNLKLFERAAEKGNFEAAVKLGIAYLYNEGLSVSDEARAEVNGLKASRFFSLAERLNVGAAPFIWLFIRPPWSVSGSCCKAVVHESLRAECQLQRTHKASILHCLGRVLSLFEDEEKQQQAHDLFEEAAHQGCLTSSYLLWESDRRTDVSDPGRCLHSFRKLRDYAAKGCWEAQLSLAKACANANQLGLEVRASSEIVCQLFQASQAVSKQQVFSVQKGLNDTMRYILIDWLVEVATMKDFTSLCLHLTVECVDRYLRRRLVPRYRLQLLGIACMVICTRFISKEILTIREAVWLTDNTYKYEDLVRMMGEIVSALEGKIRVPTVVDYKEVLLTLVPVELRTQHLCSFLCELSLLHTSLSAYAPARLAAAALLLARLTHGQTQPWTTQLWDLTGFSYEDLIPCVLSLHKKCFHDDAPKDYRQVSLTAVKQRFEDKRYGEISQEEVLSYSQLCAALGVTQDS
Under “normalised enrichment score”, `K5R` is recorded as 8.34.
`V13A` — result for “normalised enrichment score”: 3.88.
`R6A` — result for “normalised enrichment score”: 1.09.
Under “normalised enrichment score”, `K4A` is recorded as 5.5.
For `T3A`, “normalised enrichment score” read 6.89.
Under “normalised enrichment score”, `L7A` is recorded as 1.37.
For `K5R F9L`, “normalised enrichment score” read 5.36.
For `K5A L7A`, “normalised enrichment score” read 0.416.
`K2A` — result for “normalised enrichment score”: 4.64.
`F9A`: “normalised enrichment score” 0.986.

Set 2
Target: Prothrombin, mature alpha-thrombin (F2, Homo sapiens, UniProt P00734)
Method: aptamer microarray, sandwich
Molecule type: DNA with 2'F-ANA
Sample: in vitro
Tested at: 200 nM
Notes: whole 15-mer aptamer, many near background
Added: Cy3 exosite-II aptamer, 400 nM
Reading: higher = stronger binding
Oligonucleotide: GGTTGGTGTGGTTGG
Under “mean fluorescence intensity”, `2'F-ANA at 1 4 6 7 9 10 11 12 13` is recorded as 49.9 a.u.
Under “mean fluorescence intensity”, `2'F-ANA at 2 5 6 7 11 12 14 15` is recorded as 52 a.u.
For `2'F-ANA at 1 2 3 4 5 6 8 9 10`, “mean fluorescence intensity” read 51.1 a.u.
`2'F-ANA at 3 6 7 10 12` — result for “mean fluorescence intensity”: 620 a.u.
For `2'F-ANA at 2 4 7 9 10 12 15`, “mean fluorescence intensity” read 155 a.u.
`2'F-ANA at 2 3 4 7 9 11 12` — result for “mean fluorescence intensity”: 774 a.u.
`2'F-ANA at 2 11 12`: “mean fluorescence intensity” 661 a.u.
`2'F-ANA at 3 6 8 11 13` — result for “mean fluorescence intensity”: 740 a.u.
Under “mean fluorescence intensity”, `2'F-ANA at 5 6 7 9 12 13 14 15` is recorded as 45.5 a.u.
Under “mean fluorescence intensity”, `2'F-ANA at 6 8 9 10 11 14 15` is recorded as 93 a.u.
`2'F-ANA at 1 2 6 8 13 14 15`: “mean fluorescence intensity” 72.9 a.u.
`2'F-ANA at 2 3 7 11 12 14` — result for “mean fluorescence intensity”: 473 a.u.
`2'F-ANA at 1 2 4 5 6 7 8 11` — result for “mean fluorescence intensity”: 58.9 a.u.
For `2'F-ANA at 2 5 6 7 10 11 13`, “mean fluorescence intensity” read 54.8 a.u.
For `2'F-ANA at 1 2 6 13 14 15`, “mean fluorescence intensity” read 49.3 a.u.
Under “mean fluorescence intensity”, `2'F-ANA at 2 3 5 6 8 9 10 11 12 13 15` is recorded as 58.5 a.u.
`2'F-ANA at 2 4 6 8 9 10 11 12 14 15` — result for “mean fluorescence intensity”: 62.3 a.u.
Under “mean fluorescence intensity”, `2'F-ANA at 3 4 5 6 7 10 11 12 13 14` is recorded as 48 a.u.
`2'F-ANA at 7 8 9 15` — result for “mean fluorescence intensity”: 636 a.u.
For `2'F-ANA at 1 2 4 8 9 11 12`, “mean fluorescence intensity” read 219 a.u.
For `2'F-ANA at 1 5 10 13 14 15`, “mean fluorescence intensity” read 54.2 a.u.
Under “mean fluorescence intensity”, `2'F-ANA at 1 3 4 6 7 9 13 14 15` is recorded as 56.1 a.u.
`2'F-ANA at 1 2 3 4 5 8 14 15` — result for “mean fluorescence intensity”: 55.1 a.u.
Under “mean fluorescence intensity”, `2'F-ANA at 2 4 5 6 7 11 13 15` is recorded as 53.6 a.u.
For `2'F-ANA at 6 11 12 13 14`, “mean fluorescence intensity” read 199 a.u.

Set 3
Target: Hepatocyte nuclear factor 3-beta, forkhead domain (FOXA2, Homo sapiens, UniProt Q9Y261, residues 142-269)
Method: protein-binding microarray
Molecule type: double-stranded DNA, one strand shown
Sample: in vitro
Tested at: not given
Notes: k-mer, scored over probes, only values ≥0.25
Reading: higher = stronger binding
Construct (chain): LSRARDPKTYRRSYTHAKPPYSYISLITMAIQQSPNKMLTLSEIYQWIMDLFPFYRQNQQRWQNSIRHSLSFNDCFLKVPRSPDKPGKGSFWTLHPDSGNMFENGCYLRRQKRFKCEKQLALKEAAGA
The E-score of `GTTTACTA` is reported as 0.328.
For `ATTTGTAG`, the E-score was 0.254.
The E-score of `CTATCAAC` is reported as 0.27.
`AGAACAAT` has an E-score of 0.261.
With `GTTATACA` the E-score was 0.382.
For `ATAATTAT`, the E-score was 0.359.
The E-score of `ATTGTTTA` is reported as 0.349.
For `ACATACTG`, the E-score was 0.274.
`GCATCATA` gave an E-score of 0.29.
For `ACAATATC`, the E-score was 0.265.
The E-score of `ATGGTGTA` is reported as 0.302.
For `ACATTACA`, the E-score was 0.356.
For `CTGATTAC`, the E-score was 0.253.
`GGGACATA` has an E-score of 0.276.
`ACATATTA` gave an E-score of 0.358.
`ATATCCGA` gave an E-score of 0.252.
With `AAACATGT` the E-score was 0.291.
`ATATGAAT` has an E-score of 0.36.
For `TTAAAGAA`, the E-score was 0.256.
With `AGATTTAC` the E-score was 0.275.
For `CACATATA`, the E-score was 0.387.
`CTATAACA` has an E-score of 0.255.

Set 4
Target: Histone acetyltransferase KAT6A, both winged helices, GST fusion (KAT6A, Homo sapiens, UniProt Q92794, residues 1-181)
Method: protein binding microarray
Molecule type: double-stranded DNA, one strand shown
Sample: in vitro
Tested at: not given
Notes: 8-mer, flanks averaged, mean of 2 arrays, mostly near background
Baseline: not given
Reading: higher = stronger binding
Target sequence (chain): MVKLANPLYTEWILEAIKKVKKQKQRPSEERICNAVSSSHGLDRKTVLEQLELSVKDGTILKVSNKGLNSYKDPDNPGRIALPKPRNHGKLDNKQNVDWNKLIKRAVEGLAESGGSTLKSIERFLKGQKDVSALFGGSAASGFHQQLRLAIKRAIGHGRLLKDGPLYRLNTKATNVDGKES
The E-score of `CGATATTC` is reported as 0.0841.
`TACAGGTA` gave an E-score of -0.0666.
With `CACGTACA` the E-score was -0.23.
`AGCCCCCA` gave an E-score of -0.32.
`GGTCCGGA` has an E-score of 0.146.
With `ACACCTAT` the E-score was -0.0546.
For `CGTTGGTC`, the E-score was -0.0464.
`ACTCGACC` gave an E-score of -0.0691.
`AATTGGGC` gave an E-score of -0.228.
The E-score of `ATTTCGCG` is reported as 0.281.
With `ATCGCAAT` the E-score was 0.00418.
For `CACCCCTC`, the E-score was -0.119.
`ACACTACT` has an E-score of -0.206.
The E-score of `AACGTGCG` is reported as 0.152.
`TGCATCCA` gave an E-score of -0.166.
`CTGACTAA` gave an E-score of -0.0113.
For `CATTGCTC`, the E-score was -0.0842.
For `CTTACTGC`, the E-score was 0.0535.
`GTCATCTA` has an E-score of 0.00641.
The E-score of `AACCAATC` is reported as -0.151.
With `ACTAGACG` the E-score was 0.0674.
With `ACTCCACG` the E-score was -0.0537.
`CCTCATCA` gave an E-score of -0.0234.
The E-score of `CTAGTAAC` is reported as -0.169.
With `AGCAACTC` the E-score was -0.128.

Set 5
Target: Interferon regulatory factor 5, full length, phosphomimetic (IRF5, Homo sapiens, UniProt Q13568-2, residues 1-514, K96S/S451D/S453D/S456D/S462D)
Method: protein-binding microarray
Molecule type: double-stranded DNA, one strand shown
Sample: in vitro
Tested at: 250 nM
Notes: 60-bp whole probe
Added: salmon DNA 0.4 mg/ml
Baseline: random background probes
Reading: higher = stronger binding
Shared flanks, not repeated: GCCTAGCAC … GTCTTGATTCGCTTGACGCTGCTG
The log fluorescence of `GACGGTATCGACTAACGGGACGTGCTA` is reported as 2.91 z-score.
For `CTTAGTATTTTTTTCCAGAGGTGCTAG`, the log fluorescence was 0.453 z-score.
The log fluorescence of `GACGGTTTCGGACTGGCGACGTGCTAG` is reported as 4.18 z-score.
`TTAGGACTGGTTCTCGGTTAGTGCTAG` gave a log fluorescence of 0.395 z-score.
The log fluorescence of `GACGATTCCGGTTTCGAGACGTGCTAG` is reported as 3.78 z-score.
`GAGGGTTTCGGGTATCGGGACGTGCTA` has a log fluorescence of 6.44 z-score.
`CGCCCACTCATGCCTCTTAAGGTGCTA` gave a log fluorescence of -0.202 z-score.
The log fluorescence of `GACGATTTCAGTTTCGGGACGTGCTAG` is reported as 7.49 z-score.
For `AGTCCGTGGATTGACCAGATGTGCTAG`, the log fluorescence was -0.274 z-score.
With `TCAGCTTTGCCTTCAGCACTGTGCTAG` the log fluorescence was -0.116 z-score.
The log fluorescence of `GGCGGTATCCTTCTCCTGACGTGCTAG` is reported as 0.0423 z-score.
With `GACGATCACAGTCTCGAGACGTGCTAG` the log fluorescence was -0.428 z-score.
`TTAGAACTGCGTTTCGATTAGTGCTAG` has a log fluorescence of 6.09 z-score.
`TTAGGTTTCCTTCTTCTTTAGTGCTAG` gave a log fluorescence of 1.24 z-score.
With `GACGGTATCCTTTACCTGACGTGCTAG` the log fluorescence was -0.00473 z-score.
The log fluorescence of `TCCACTTTCTTTTGCTTGTTGTGCTAG` is reported as 3.08 z-score.
With `TCAGGTTTCGGTTCCGGTTAGTGCTAG` the log fluorescence was 9.85 z-score.
For `TGCATCGTAAGCAAAAATGAGTGCTAG`, the log fluorescence was 0.461 z-score.
`TTAGGTTTCGGTTCCCGTTAGTGCTAG` gave a log fluorescence of 10.5 z-score.
For `CCATGTTGCAGACTCGAAGGGTGCTAG`, the log fluorescence was -0.374 z-score.
The log fluorescence of `GGACTGTCAGCCACTTTTTGGTGCTAG` is reported as -0.188 z-score.
`GAGATTTTCATTATTGCTTCGTGCTAG` gave a log fluorescence of 2.27 z-score.
`GACGGACTGCTTTTCCTGCCGTGCTAG` has a log fluorescence of -0.118 z-score.
For `GACCGTATCGGTATCGGGACGTGCTAG`, the log fluorescence was 6.38 z-score.
For `GACGGCTTCGACTTTCGGGACGTGCTA`, the log fluorescence was 4.11 z-score.

A few entries again (set 2):
Under “mean fluorescence intensity”, `2'F-ANA at 2 5 6 7 11 12 14 15` is recorded as 52 a.u.
For `2'F-ANA at 1 2 3 4 5 6 8 9 10`, “mean fluorescence intensity” read 51.1 a.u.
`2'F-ANA at 3 6 7 10 12` — result for “mean fluorescence intensity”: 620 a.u.
For `2'F-ANA at 2 4 7 9 10 12 15`, “mean fluorescence intensity” read 155 a.u.
`2'F-ANA at 2 3 4 7 9 11 12` — result for “mean fluorescence intensity”: 774 a.u.
`2'F-ANA at 2 11 12`: “mean fluorescence intensity” 661 a.u.
`2'F-ANA at 3 6 8 11 13` — result for “mean fluorescence intensity”: 740 a.u.
Under “mean fluorescence intensity”, `2'F-ANA at 5 6 7 9 12 13 14 15` is recorded as 45.5 a.u.
Under “mean fluorescence intensity”, `2'F-ANA at 6 8 9 10 11 14 15` is recorded as 93 a.u.
`2'F-ANA at 1 2 6 8 13 14 15`: “mean fluorescence intensity” 72.9 a.u.
`2'F-ANA at 2 3 7 11 12 14` — result for “mean fluorescence intensity”: 473 a.u.
`2'F-ANA at 1 2 4 5 6 7 8 11` — result for “mean fluorescence intensity”: 58.9 a.u.
For `2'F-ANA at 2 5 6 7 10 11 13`, “mean fluorescence intensity” read 54.8 a.u.
